Measurements gathered from unrelated publications.
Protocols differ between the studies behind these lines. Numbers after ± are the reported error.

COc1ccc(CNc2c(NC3CCN(Cc4ccccc4)CC3)c(=O)c2=O)cc1OC  cell survival (SH-SY5Y; neuroprotection, MTT; 12.5 µM, 24 h pretreatment, together with: H2O2 650 µM for 4 h): 55.7%
COC(=O)C1=CO[C@@H](OC(C)=O)[C@@H]2C(Cn3cc(CCO)nn3)=CC[C@H]12  viability (SK-N-SH; neuroprotection, MTT; 0.3 µM, 24 h, together with: 250 µM H2O2): 71.2 ± 2.8%
C[OH+][Cu-2]12[O]C(c3cn(-c4ccccc4)nc3-c3ccccc3)=N[N+]1=C(C)c1c(cc(C)oc1=O)[O]2 (stereo not drawn)  selectivity index (A549 and Vero cells; cell viability, MTT; reference: IC50 Vero over IC50 A549): 7.6
CC(C)C[C@H](NC(=O)[C@H](CO)NC(=O)[C@H](Cc1c[nH]c2ccccc12)NC(=O)[C@H](Cc1ccccc1)NC(=O)[C@H](Cc1ccccc1)NC(=O)[C@H](CCC(N)=O)NC(=O)[C@@H]1CCCN1C(=O)[C@H](CCCNC(=N)N)NC(=O)[C@H](CCCNC(=N)N)NC(=O)[C@H](CCCNC(=N)N)NC(=O)[C@H](CCC(N)=O)NC(=O)[C@H](CCCNC(=N)N)NC(=O)[C@H](CCCNC(=N)N)NC(=O)[C@H](CCCCN)NC(=O)[C@H](CCCCN)NC(=O)[C@H](CCCNC(=N)N)NC(=O)CNC(=O)[C@@H](N)Cc1ccc(O)cc1)C(=O)N[C@@H](CS)C(=O)N[C@H](C(=O)N[C@@H](C)C(=O)O)[C@@H](C)O  trypan blue-excluding cells (Jurkat; 7.5 µM, 17 h, no zVAD-fmk): 15%
COc1ccc(Nc2c3c(nc4cc(C)ccc24)CCCC3)nc1  viability (SH-SY5Y; MTT; 50 µM, 1 h pretreatment, 10% FBS, together with: H2O2): 44 ± 3.2%
COC(=O)C1=CO[C@@H](O)[C@@H]2C(Cn3cc(CON4C(=O)c5ccccc5C4=O)nn3)=CC[C@H]12  viability (SK-N-SH; neuroprotection, MTT; 0.075 µM, 24 h, together with: 250 µM H2O2): 52 ± 1.8%
CC(C)=CCC1=C([O-])C(=O)c2ccccc2C1=O.CC(C)=CCC1=C([O-])C(=O)c2ccccc2C1=O.[Zn+2].c1ccc(-c2ccnc3c2ccc2c(-c4ccccc4)ccnc23)cc1  selectivity index (MRC5 and A2780; MTT; 24 h; reference: IC50 MRC5 over IC50 A2780): 5.4
CC[C@H](C)[C@@H]1NC(=O)[C@H](Cc2cn(CCc3c(C)[nH]c4cc(Cl)cc(Cl)c34)nn2)NC(=O)[C@@H](CC(N)=O)NC(=O)[C@H](CCCNC(=N)N)NC(=O)[C@H](Cc2ccccc2)NC(=O)[C@@H](CC(C)C)NC(=O)[C@H](C)NC(=O)c2cc3cc(c2)C(=O)NC[C@@H](C(=O)N[C@@H](CCCCN)C(N)=O)NC(=O)[C@H](CCCNC(=N)N)NC(=O)[C@H](CCCNC(=N)N)NC(=O)[C@H](CCCNC(=N)N)NC(=O)[C@H](CCCNC(=N)N)NC(=O)[C@H](Cc2ccc4ccccc4c2)NC(=O)[C@H](Cc2ccccc2)NC(=O)[C@H](CCCCNC3=O)NC(=O)[C@H](CC(=O)O)NC1=O  dead cells (H1299; annexin V/propidium iodide flow cytometry; 10 µM, 24 h): 54%
COC(=O)C1=CO[C@@H](OC(C)=O)[C@@H]2C(Cn3cc(-c4ccc(OC)cc4)nn3)=CC[C@H]12  viability (SK-N-SH; neuroprotection, MTT; 0.15 µM, 24 h, together with: 250 µM H2O2): 66.6 ± 0.7%
CC[C@H](C)[C@H](NC(=O)[C@H](CCCCN)NC(=O)[C@@H](NC(=O)[C@H](CCC(N)=O)NC(=O)[C@@H](N)CCCNC(=N)N)[C@@H](C)CC)C(=O)N[C@@H](Cc1c[nH]c2ccccc12)C(=O)N[C@@H](Cc1ccccc1)C(=O)N[C@@H](CCC(N)=O)C(=O)N[C@@H](CC(N)=O)C(=O)N[C@@H](CCCNC(=N)N)C(=O)N[C@@H](CCCNC(=N)N)C(=O)N[C@@H](CCSC)C(=O)N[C@@H](CCCCN)C(=O)N[C@@H](Cc1c[nH]c2ccccc12)C(=O)N[C@@H](CCCCN)C(=O)N[C@@H](CCCCN)C(=O)N[C@@H](CO)C(=O)N[C@@H](Cc1c[nH]c2ccccc12)C(=O)N[C@H](C(=O)N[C@@H](Cc1c[nH]c2ccccc12)C(=O)N[C@@H](CCC(=O)O)C(=O)N[C@@H](CCCCN)C(=O)N[C@@H](CCCCN)C(=O)N[C@@H](CC(C)C)C(=O)N[C@@H](CCC(=O)O)C(=O)N[C@H](C(=O)N[C@@H](C)C(=O)N[C@H](C(=O)N[C@@H](CC(N)=O)C(=O)N[C@@H](CC(C)C)C(=O)N[C@@H](C)C(=O)N[C@@H](Cc1c[nH]c2ccccc12)C(=O)N[C@H](C(=O)N[C@@H](C)C(=O)NCC(=O)N[C@@H](CC(N)=O)C(=O)N[C@@H](CO)C(=O)N[C@@H](CC(N)=O)C(=O)N[C@@H](CCCCN)C(=O)N[C@@H](Cc1c[nH]c2ccccc12)C(=O)N[C@H](C(=O)N[C@@H](Cc1c[nH]c2ccccc12)C(=O)N[C@@H](CCCCN)C(=O)O)[C@@H](C)O)[C@@H](C)O)C(C)C)[C@@H](C)O)[C@@H](C)O  apoptotic cells (MEC1; acridine orange/ethidium bromide; concentration not given, 40 min): > 95%
CC[C@H](C)[C@@H]1NC(=O)[C@H](CCCNC(=N)N)NC(=O)C[C@H](c2cccc3ccccc23)NC(=O)[C@@H]2CSSC[C@H](NC(=O)C[C@H](c3cccc4ccccc34)NC(=O)[C@H](CCCNC(=N)N)NC(=O)[C@@H]3CCCN3C(=O)[C@@H]3CCCN3C1=O)C(=O)N[C@@H](Cc1ccccc1)C(=O)N1CCC[C@H]1C(=O)N[C@@H](CC(=O)O)C(=O)N[C@@H](CC(=O)O)C(=O)N[C@@H](Cc1ccccc1)C(=O)N2  IC50 (BT-474 (HER2+); cell growth; 72 h): 2.94 ± 1.05 µM
CCCc1cc2c(c(OC)c1OC)OCO2  GI50 (SK-OV-3; cell growth or viability, MTT; 72 h): > 250 µM
CC/C=C\C/C=C\C/C=C\C/C=C\C/C=C\C/C=C\CCC(=O)Nc1ccn(C2OC(CO)C(O)C2(F)F)c(=O)n1 (stereo not drawn)  CC50 (OVCAR-8; NCI60 screen): 43.2 µM
COC(=O)C1=CO[C@@H](O)[C@@H]2C(Cn3cc(-c4ccc(OC)cc4)nn3)=CC[C@H]12  viability (SK-N-SH; neuroprotection, MTT; 0.075 µM, 24 h, together with: 250 µM H2O2): 54.9 ± 2.5%
Cc1cc(N)c2ccccc2[n+]1CCCCCCCCCCCCCC[n+]1c(C)cc(N)c2ccccc21  EC50 ratio (neuroblastoma tumour-initiating cells; sphere formation; reference: SMS-KCNR over tumour-initiating cells): 2.4 fold

Repeated from above:
COC(=O)C1=CO[C@@H](O)[C@@H]2C(Cn3cc(-c4ccc(OC)cc4)nn3)=CC[C@H]12  viability (SK-N-SH; neuroprotection, MTT; 0.075 µM, 24 h, together with: 250 µM H2O2): 54.9 ± 2.5%
